# Results collected from several papers.
# Compare with care: the assays were run in different laboratories. ± marks the error that the study gave.
# UniProt Q8NI60, sequence (whole entry, looked up): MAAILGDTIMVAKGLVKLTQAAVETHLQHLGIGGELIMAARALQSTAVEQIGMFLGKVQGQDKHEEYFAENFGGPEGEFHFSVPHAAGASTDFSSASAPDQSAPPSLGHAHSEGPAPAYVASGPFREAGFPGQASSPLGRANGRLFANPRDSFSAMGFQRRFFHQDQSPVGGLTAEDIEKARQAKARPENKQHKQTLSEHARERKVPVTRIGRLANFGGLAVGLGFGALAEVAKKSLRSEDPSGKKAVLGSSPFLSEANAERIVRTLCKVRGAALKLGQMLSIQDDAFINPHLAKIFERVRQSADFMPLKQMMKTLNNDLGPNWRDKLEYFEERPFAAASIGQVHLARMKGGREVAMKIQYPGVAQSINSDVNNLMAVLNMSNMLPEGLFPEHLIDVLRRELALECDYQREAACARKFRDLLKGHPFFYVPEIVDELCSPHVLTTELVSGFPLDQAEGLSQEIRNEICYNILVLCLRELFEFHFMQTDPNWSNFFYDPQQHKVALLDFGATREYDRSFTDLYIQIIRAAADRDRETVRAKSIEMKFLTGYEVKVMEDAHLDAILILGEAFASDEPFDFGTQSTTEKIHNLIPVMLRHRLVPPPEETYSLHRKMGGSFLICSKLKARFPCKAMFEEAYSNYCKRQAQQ
# UniProt P48426, sequence (whole entry, looked up): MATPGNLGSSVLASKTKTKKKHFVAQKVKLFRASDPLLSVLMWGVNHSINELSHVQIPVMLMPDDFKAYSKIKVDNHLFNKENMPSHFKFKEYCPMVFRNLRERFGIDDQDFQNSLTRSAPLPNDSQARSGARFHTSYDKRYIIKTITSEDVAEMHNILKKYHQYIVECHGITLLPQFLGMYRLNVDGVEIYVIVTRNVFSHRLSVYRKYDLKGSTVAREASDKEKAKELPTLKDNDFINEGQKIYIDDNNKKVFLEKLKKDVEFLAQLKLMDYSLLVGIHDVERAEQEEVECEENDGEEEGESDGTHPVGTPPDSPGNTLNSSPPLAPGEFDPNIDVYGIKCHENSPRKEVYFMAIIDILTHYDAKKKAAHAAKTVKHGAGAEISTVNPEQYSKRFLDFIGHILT
# UniProt Q9NWZ3, sequence (whole entry, looked up): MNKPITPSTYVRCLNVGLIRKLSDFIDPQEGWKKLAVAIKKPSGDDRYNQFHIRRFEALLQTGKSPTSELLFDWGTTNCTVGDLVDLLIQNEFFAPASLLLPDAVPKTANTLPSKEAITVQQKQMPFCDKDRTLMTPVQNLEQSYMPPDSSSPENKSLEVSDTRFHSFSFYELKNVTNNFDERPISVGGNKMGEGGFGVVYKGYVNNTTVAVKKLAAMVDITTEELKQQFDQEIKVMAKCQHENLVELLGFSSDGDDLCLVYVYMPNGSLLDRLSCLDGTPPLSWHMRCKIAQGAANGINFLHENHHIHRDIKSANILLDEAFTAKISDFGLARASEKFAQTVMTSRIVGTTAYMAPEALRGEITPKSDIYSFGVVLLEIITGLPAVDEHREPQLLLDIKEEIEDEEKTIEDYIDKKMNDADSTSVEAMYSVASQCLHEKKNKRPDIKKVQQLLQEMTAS
# UniProt P35367, sequence (whole entry, looked up): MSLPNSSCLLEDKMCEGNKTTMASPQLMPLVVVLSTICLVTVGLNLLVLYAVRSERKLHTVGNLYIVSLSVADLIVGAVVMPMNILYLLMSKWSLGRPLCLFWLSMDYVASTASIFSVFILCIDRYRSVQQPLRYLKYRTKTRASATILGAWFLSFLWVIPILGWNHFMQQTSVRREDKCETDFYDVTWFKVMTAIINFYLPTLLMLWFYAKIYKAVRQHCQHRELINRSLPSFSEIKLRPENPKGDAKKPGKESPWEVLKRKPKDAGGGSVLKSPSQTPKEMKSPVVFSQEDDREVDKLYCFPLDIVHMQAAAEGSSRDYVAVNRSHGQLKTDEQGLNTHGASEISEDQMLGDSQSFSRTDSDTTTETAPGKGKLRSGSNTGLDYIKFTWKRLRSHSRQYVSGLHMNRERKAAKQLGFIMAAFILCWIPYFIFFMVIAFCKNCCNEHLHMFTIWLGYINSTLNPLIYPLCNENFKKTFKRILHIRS
# UniProt P49759, sequence (whole entry, looked up): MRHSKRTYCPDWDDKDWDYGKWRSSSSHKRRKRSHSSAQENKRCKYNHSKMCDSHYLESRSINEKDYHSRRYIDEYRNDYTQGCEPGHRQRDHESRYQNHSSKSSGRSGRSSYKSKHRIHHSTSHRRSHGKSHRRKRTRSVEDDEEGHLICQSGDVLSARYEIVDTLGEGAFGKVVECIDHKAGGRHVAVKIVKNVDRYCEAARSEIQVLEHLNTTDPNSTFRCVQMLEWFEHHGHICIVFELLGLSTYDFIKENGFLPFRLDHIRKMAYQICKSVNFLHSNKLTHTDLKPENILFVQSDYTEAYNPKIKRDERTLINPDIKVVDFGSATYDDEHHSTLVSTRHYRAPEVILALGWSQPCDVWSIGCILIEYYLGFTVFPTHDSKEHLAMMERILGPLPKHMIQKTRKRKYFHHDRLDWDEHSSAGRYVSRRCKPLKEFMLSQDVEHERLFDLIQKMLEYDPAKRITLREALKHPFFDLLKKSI
# UniProt P11362, sequence (whole entry, unmodified, looked up): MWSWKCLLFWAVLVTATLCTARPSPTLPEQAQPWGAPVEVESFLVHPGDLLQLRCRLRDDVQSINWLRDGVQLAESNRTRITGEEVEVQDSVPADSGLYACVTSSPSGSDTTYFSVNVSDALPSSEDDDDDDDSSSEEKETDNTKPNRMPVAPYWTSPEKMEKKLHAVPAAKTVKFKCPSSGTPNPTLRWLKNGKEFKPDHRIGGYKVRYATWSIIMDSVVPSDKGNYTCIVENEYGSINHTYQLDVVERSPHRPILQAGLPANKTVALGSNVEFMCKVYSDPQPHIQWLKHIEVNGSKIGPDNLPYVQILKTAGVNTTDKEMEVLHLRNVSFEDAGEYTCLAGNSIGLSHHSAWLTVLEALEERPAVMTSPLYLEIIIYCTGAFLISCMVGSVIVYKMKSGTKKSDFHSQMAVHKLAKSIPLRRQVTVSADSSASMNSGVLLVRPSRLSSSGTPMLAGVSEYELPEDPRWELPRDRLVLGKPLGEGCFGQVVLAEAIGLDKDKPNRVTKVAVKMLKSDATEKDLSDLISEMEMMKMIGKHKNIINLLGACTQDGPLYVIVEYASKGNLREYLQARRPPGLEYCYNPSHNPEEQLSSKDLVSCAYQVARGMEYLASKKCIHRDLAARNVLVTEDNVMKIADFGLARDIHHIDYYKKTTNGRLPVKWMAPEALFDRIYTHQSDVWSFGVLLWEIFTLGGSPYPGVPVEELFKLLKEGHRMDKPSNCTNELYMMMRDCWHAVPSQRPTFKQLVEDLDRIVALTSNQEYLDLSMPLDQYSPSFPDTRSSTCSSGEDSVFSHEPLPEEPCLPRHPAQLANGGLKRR
# UniProt Q9R0P3, sequence (whole entry, looked up): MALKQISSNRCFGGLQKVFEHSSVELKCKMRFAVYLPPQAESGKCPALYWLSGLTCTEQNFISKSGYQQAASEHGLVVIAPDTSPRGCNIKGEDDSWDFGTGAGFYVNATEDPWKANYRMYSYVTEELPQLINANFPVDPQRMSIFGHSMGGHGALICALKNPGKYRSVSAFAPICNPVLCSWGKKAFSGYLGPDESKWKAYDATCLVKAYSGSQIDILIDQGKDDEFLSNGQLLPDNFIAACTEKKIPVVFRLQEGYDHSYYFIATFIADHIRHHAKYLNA
# UniProt Q15059, sequence (whole entry, looked up): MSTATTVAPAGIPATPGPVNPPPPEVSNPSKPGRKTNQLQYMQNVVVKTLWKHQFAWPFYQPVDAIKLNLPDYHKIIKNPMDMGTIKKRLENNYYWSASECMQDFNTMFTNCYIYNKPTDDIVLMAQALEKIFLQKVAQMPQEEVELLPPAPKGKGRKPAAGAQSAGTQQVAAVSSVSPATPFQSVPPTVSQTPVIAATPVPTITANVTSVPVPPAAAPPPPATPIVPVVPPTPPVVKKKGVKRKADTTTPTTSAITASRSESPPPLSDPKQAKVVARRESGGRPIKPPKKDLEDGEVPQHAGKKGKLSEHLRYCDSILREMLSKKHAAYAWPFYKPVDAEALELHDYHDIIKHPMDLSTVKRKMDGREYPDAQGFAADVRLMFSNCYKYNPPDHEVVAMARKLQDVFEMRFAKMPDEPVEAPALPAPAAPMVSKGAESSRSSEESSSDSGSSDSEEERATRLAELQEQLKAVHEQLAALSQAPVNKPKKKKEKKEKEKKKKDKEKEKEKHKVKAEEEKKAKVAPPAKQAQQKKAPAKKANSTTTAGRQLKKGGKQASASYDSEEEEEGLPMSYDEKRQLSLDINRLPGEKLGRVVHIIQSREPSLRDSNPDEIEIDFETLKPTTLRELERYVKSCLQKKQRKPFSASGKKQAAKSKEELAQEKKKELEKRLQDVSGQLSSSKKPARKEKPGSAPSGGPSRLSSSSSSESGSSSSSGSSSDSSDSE
SMILES,tested on,assay,test system,setting,how to read,quantity,value
N[C@H](C(=O)N1CCCC1)C1CCN(c2nccc3c(-c4ncc(Cl)cc4Cl)cccc23)CC1,"HRH1 (Homo sapiens, UniProt P35367)","functional response, antagonist",,10 µM,,inhibition,15%
O=C1NC(=O)c2c1c1cc(F)c[n+]3c1c1c2c2cc(O)ccc2[n]1[Ru-4]312([N]=C=S)[S+]3CC[S+]1CC[S+]2CC3 (stereo not drawn),"IRAK4 (Homo sapiens, UniProt Q9NWZ3)",enzyme activity,,"100 nM, human enzyme, with: 10 µM ATP",relative to: untreated,remaining activity,94%
CC(C)[C@H]1NC(=O)C[C@H]2/C=C/CCSSC[C@@H](NC1=O)C(=O)N[C@H](Cc1cccc3ccccc13)C(=O)NCC(=O)O2,"CLK1 (Homo sapiens, UniProt P49759)","enzyme activity, inhibitor",,10 µM,,inhibition,0.4%
CC(C)CC(O)(CC(C)C)c1cn(C(=O)N2CCCC2)nn1,"S-formylglutathione hydrolase (Esd, Mus musculus, UniProt Q9R0P3)","enzyme activity, inhibitor, measured: Esd","mouse, brain","i.p., 0.8 mg/kg, 4 h, protein level",relative to: vehicle,ratio of ratios,1.4
CN(C)[C@H]1C[C@@]23CC[C@@]4(O2)C(=CC[C@]2(C)[C@@H](c5ccc6ccncc6c5)CC[C@H]24)C=C3[C@@H](O)[C@@H]1O,"PIP4K2A (Homo sapiens, UniProt P48426)","ATP probe labelling, inhibitor, KiNativ profiling",,0.1 µM,,inhibition,-7.8%
CS(C)(=O)=Nc1ccc(-c2ccc(-c3nc4cc(O[C@@H]5CO[C@H]6[C@@H]5OC[C@H]6O)[nH]c4cc3F)cc2)cc1,"FGFR1 (Homo sapiens, UniProt P11362, V561M)","enzyme activity, inhibitor",,10 µM,,inhibition,4%
Cc1sc2c(c1C)C(c1ccc(Cl)cc1)=N[C@@H](CC(=O)OC(C)(C)C)c1nnc(C)n1-2,"Bromodomain-containing protein 3, BD2 (BRD3, Homo sapiens, UniProt Q15059)",isothermal titration calorimetry,,"concentration not given, 15 °C, reverse titration",,binding stoichiometry,1.03 ± 0.002
Nc1ccc(/C=C/C(=O)N2CCc3c(oc4c(-c5ccc(F)cc5)cc(-c5ccc(C(=O)N6CCC(F)(F)CC6)cn5)cc34)C2)cn1,"COQ8A (Homo sapiens, UniProt Q8NI60)","binding, competition with immobilised ligand",,1 µM,,remaining binding,100%
O=C1NC2(CC2)COc2ncc(F)cc2[C@H]2COCCN2c2ccn3ncc1c3n2,,,"Sprague-Dawley rat, male, testes","oral, 2.5 mg/kg/day, 4 weeks dosing, end of recovery",,organ-to-body weight ratio,0.654 ± 0.109%

# A few entries again:
SMILES,tested on,assay,test system,setting,how to read,quantity,value
CS(C)(=O)=Nc1ccc(-c2ccc(-c3nc4cc(O[C@@H]5CO[C@H]6[C@@H]5OC[C@H]6O)[nH]c4cc3F)cc2)cc1,"FGFR1 (Homo sapiens, UniProt P11362, V561M)","enzyme activity, inhibitor",,10 µM,,inhibition,4%
